Measured values pooled from the literature.
Parts stem from different laboratories: compare values within a part only. “And” joins repeats or separate records; there may be more than shown. Values after ≈ are worked out from the molar mass of the structure shown.
UniProt P07342, sequence (whole entry, looked up): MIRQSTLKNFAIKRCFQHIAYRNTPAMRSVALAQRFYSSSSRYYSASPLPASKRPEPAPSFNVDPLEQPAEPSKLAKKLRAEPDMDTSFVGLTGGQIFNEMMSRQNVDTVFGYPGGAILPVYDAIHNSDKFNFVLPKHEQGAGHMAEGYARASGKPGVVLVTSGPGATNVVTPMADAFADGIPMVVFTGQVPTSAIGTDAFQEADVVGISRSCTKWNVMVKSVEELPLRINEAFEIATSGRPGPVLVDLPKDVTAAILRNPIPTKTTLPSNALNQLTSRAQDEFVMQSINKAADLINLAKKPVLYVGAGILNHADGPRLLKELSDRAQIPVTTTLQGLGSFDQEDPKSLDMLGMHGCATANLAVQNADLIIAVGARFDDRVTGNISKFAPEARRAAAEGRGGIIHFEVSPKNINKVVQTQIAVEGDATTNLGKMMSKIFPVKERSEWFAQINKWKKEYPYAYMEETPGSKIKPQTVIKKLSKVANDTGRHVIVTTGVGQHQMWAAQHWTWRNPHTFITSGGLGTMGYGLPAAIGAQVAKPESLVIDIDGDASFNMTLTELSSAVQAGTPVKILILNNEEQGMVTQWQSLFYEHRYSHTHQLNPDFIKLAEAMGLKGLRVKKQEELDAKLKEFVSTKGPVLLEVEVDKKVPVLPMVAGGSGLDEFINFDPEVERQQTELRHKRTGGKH

Sample 1
SMILES: Cn1cc(-c2cccc(CN3CCC4(CC3)COc3c4ccc4c3CN([C@H]3CCC(=O)NC3=O)C4=O)c2)cn1
Host: Crbn I391V mouse, MC-38 tumour
setting	body weight change
oral, 30 mg/kg once daily, day 10	-5% and -4% and -3.2% and -1.2% and 0%
oral, daily, 30 mg/kg, day 19, anti-PD1 combination study	2.5% and 1% and 5.6% and 4.2% and -4.7%
oral, daily, 30 mg/kg, day 12, anti-PD1 combination study	3.8% and -0.4% and 4.8% and 6.5%
oral, daily, 30 mg/kg, day 8, anti-PD1 combination study	0.7% and 0% and -0.4% and -4.1% and 0.4%
oral, daily, 30 mg/kg, day 33, anti-PD1 combination study	13.1% and 17.8% and -3.7% and 1.7% and 10.2%
30 mg/kg, day 6, added: anti-LAG3 antibody 10 mg/kg weekly	-4.5% and -3.8% and -6.9% and 0% and 4.1%
oral, 30 mg/kg once daily, day 1	0%
oral, 30 mg/kg once daily, day 7	4.4% and -2.5% and -6.1% and 12.4% and -2%
oral, daily, 30 mg/kg, day 28, anti-PD1 combination study	3.7% and 13% and -0.7% and 8.6% and -4%
oral, 30 mg/kg once daily, day 18	6.2% and 2.8% and -1.8% and 0.9% and 3.8%
30 mg/kg, day 4, added: anti-LAG3 antibody 10 mg/kg weekly	-5.1% and -2.5% and -6.2% and -0.8% and -3.2%
30 mg/kg, day 8, added: anti-LAG3 antibody 10 mg/kg weekly	-3.7% and 3.1% and -4.6% and -2.5%
oral, daily, 30 mg/kg, day 5, anti-PD1 combination study	-2.2% and 6% and 4.5% and 5.7% and 4.9%
30 mg/kg, day 29, added: anti-LAG3 antibody 10 mg/kg weekly	-0.4% and -4.2% and -7.3% and 0% and 2.5%

Sample 2
Compound: N=C(N)NCCCCCCN1CCC23c4c5ccc(O)c4OC2c2nc4ccccc4cc2CC3(O)C1C5 (centres unmarked)
Method: modified Racine scale
Host: C57BL/6J mice, male
Route: intracerebroventricular
Dose: 100 nmol
Reading: direction not given
setting	seizure score
50 min	0
35 min	0
60 min	0
80 min	0
10 min	0
45 min	0
70 min	0

Sample 3
Structure (SMILES): CCCCC[C@@H](O)CC(=O)N[C@H]1COC(=O)[C@H](CO)NC(=O)[C@H](Cc2ccccc2)NC(=O)[C@@H](Cc2c[nH]c3ccccc23)NC(=O)[C@@H](C(C)O)NC(=O)[C@H](CC(N)=O)NC(=O)[C@@H](C(C)C)NC(=O)[C@H](CC(C)C)NC(=O)[C@@H](Cc2ccc(O)cc2)N(C)C(=O)CNC(=O)[C@H](CO)NC(=O)[C@@H](CC(N)=O)NC1=O (some centres unmarked)
Organism: Staphylococcus aureus
Strain: USA300
setting	MIC
added: ubiquinone 16 µg/mL	4 µg/mL (≈ 2.64 µM)
added: menaquinone 0.25 µg/mL	16 µg/mL (≈ 10.6 µM)
added: menaquinone 4 µg/mL	64 µg/mL (≈ 42.3 µM)
added: menaquinone 0.125 µg/mL	16 µg/mL (≈ 10.6 µM)
added: menaquinone 8 µg/mL	> 64 µg/mL
added: menaquinone 0.0625 µg/mL	8 µg/mL (≈ 5.29 µM)

Mixed results
SMILES	target or system	test	system	setting	measurement	result
C=CCN1C(=O)C(O)(C(=O)O)Oc2cc(F)ccc21 (centres unmarked)	Arabidopsis thaliana		Col-0	3.125 µg/mL, seed germination, single repetition	hypocotyl length	2.09 cm and 2.08 cm and 2.1 cm
C#CCN1C(=O)C(O)(C(=O)O)Oc2cc(F)ccc21 (centres unmarked)	Acetolactate synthase catalytic subunit, mitochondrial (Saccharomyces cerevisiae S288c, UniProt P07342)	binding, microscale thermophoresis			Kd	12 mM

Excerpt of the above (sample 1):
setting	body weight change
oral, 30 mg/kg once daily, day 10	-5% and -4% and -3.2% and -1.2% and 0%
oral, 30 mg/kg once daily, day 7	4.4% and -2.5% and -6.1% and 12.4% and -2%
oral, daily, 30 mg/kg, day 19, anti-PD1 combination study	2.5% and 1% and 5.6% and 4.2% and -4.7%
oral, daily, 30 mg/kg, day 5, anti-PD1 combination study	-2.2% and 6% and 4.5% and 5.7% and 4.9%
